Values quoted from earlier work, collected from citations in different studies.
Lines come from different studies, so protocols differ. Numbers after ± are the reported error.
DHFR: Dihydrofolate reductase (DHFR, Homo sapiens, UniProt P00374)
Chain of UniProt P00374 (whole entry, looked up): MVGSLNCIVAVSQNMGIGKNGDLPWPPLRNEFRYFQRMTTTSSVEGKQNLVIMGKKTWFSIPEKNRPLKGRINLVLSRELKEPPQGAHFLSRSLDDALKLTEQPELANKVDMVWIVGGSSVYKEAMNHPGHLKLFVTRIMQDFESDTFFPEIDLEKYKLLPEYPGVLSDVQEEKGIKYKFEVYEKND
Chain of UniProt P00367 (whole entry, unmodified, looked up): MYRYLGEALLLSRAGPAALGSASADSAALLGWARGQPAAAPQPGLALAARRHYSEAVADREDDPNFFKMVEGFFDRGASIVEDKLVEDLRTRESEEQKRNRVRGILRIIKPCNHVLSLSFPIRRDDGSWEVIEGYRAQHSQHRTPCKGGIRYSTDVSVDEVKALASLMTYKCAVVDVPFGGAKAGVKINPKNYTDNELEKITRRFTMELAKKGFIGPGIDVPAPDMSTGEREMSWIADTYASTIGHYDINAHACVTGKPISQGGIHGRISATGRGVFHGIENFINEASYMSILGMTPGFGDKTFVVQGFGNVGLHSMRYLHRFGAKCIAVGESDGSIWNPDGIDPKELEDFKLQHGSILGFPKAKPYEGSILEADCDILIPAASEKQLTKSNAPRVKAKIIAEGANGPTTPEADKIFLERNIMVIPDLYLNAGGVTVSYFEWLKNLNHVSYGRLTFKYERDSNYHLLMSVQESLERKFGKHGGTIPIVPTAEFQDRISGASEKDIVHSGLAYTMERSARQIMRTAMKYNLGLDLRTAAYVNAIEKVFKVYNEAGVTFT
Chain of UniProt P02730 (whole entry, looked up): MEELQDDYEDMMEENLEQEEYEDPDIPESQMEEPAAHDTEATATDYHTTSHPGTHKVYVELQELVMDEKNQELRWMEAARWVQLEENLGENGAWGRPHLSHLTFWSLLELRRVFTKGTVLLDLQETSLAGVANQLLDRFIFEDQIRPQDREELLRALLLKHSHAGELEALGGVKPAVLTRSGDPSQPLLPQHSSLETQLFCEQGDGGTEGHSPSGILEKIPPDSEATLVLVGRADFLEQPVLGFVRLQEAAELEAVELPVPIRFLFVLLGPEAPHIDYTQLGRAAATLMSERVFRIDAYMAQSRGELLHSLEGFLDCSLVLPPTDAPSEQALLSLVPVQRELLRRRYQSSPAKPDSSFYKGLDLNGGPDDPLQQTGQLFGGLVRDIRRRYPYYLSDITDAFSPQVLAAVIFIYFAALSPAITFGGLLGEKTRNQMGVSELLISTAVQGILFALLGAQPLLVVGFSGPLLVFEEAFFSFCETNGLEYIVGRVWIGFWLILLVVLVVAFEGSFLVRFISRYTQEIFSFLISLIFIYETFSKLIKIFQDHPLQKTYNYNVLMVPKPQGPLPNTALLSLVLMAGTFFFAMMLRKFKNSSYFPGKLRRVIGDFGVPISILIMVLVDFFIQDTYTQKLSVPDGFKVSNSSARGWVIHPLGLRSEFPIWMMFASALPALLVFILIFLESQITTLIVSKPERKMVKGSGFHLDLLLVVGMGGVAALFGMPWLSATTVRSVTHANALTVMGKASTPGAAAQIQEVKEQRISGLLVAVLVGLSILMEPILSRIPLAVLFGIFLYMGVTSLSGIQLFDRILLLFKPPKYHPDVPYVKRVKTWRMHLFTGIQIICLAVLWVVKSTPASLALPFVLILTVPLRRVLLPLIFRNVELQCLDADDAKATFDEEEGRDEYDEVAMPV
Chain of UniProt P30542 (whole entry, looked up): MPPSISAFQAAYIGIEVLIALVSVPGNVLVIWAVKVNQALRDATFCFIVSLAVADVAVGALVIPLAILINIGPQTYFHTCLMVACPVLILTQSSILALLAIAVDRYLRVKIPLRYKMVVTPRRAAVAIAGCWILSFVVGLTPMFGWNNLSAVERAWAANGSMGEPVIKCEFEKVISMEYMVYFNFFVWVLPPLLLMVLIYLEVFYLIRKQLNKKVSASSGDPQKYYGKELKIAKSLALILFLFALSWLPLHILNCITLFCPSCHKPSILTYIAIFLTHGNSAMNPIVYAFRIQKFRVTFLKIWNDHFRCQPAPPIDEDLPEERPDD

HWKHLHNTKTFL  Kd (MMP-14; binding; peptide; apparent Kd): 0.0474 µM
O=C(O)CN(CC(=O)O)CC(=O)O  Kd (hexahistidine tag; binding): ~10 µM
Teicoplanin  Kd (albumin; binding): 41.5 µM
Nc1ncnc2c1ncn2[C@@H]1O[C@H](CO)[C@@H](O[C@H]2O[C@H](CO)[C@@H](OP(=O)(O)O)[C@H](OP(=O)(O)O)[C@H]2O)[C@H]1OP(=O)(O)O  Kd (IP3 receptor): 0.00073 µM
Nc1nc2c(nc(Sc3ccc(Cl)cc3)n2C2OC3COP(O)(=S)OC3C2O)c(=O)[nH]1 (centres unmarked)  Km or Ki (PDE1A; cyclic nucleotide hydrolysis, substrate or inhibitor, isothermal titration calorimetry): 42.4 µM
Cc1ccc(Sc2cccc3[nH]c4nc(N)nc(N)c4c23)cc1  IC50 (DHFR; inhibitor): > 31 µM
CC[N+](CC)(CC)CC  Kd (Loligo opalescens; potassium current block; squid axon; internal application): 1000 µM
CC(C)COCC(CN(Cc1ccccc1)c1ccccc1)N1CCCC1 (centres unmarked)  Kd (cardiac troponin C N-domain; binding; added: cardiac troponin I switch peptide): 80 µM
O=[N+]([O-])c1ccc(Sc2nnc(COc3ccccc3)n2-c2ccccc2)c2ncccc12  Kd (Keap1 Kelch domain; binding, SPR): > 300 µM
C[C@@]12CC=C3c4ccc(O)cc4CC[C@@H]3[C@H]1CC[C@H]2O  EC50 (HT-22; cell protection; added: iodoacetic acid 40 µM): 0.679 µM
Cc1c(OCC(F)(F)F)ccnc1C[S+]([O-])c1nc2ccccc2[nH]1 (centres unmarked)  Kd (heparin-induced tau filaments; radioligand binding): 0.0025 ± 0.0004 µM
O=P(O)(O)OCC(O)CO (racemic)  Kd (orotidine 5'-phosphate decarboxylase wild type; activator; pH 7.0, 25 °C, ionic strength 0.15 (NaCl), added: FO): 50000 µM
CC(=O)O[C@@]12CO[C@@H]1C[C@H](O)[C@@]1(C)C(=O)[C@H](O)C3=C(C)[C@@H](OC(=O)[C@H](O)[C@@H](NC(=O)OC(C)(C)C)c4ccccc4)C[C@@](O)([C@@H](OC(=O)c4ccccc4)[C@H]21)C3(C)C  Kd (tubulin; competition binding; cross-linked microtubules; added: Flutax-2): 0.017 µM
Nc1nc2c(ncn2[C@@H]2O[C@H](COP(=O)(O)OP(=O)(O)OP(=O)(O)O)[C@@H](O)[C@H]2O)c(=O)[nH]1  IC50 (GLUD1 (Homo sapiens, UniProt P00367, S501P); enzyme activity, allosteric inhibitor; mutant enzyme, reductive amination): 3.1 µM
CC(C)(COP(=O)(O)OP(=O)(O)OC[C@H]1O[C@@H](n2cnc3c(N)ncnc32)[C@H](O)[C@@H]1OP(=O)(O)O)[C@@H](O)C(=O)NCCC(=O)NCCSCC(=O)c1ccc(O)cc1  Kd (thioesterase (wild type); fluorescence quenching): 0.33 µM
CCCCNc1ccc(C(=O)OCCN(C)C)cc1  Kd (CNG channel; binding; open channel state): 170 µM
NC(=O)C1=CN([C@@H]2O[C@H](COP(=O)(O)OP(=O)(O)OC[C@H]3O[C@@H](n4cnc5c(N)ncnc54)[C@H](OP(=O)(O)O)[C@@H]3O)[C@@H](O)[C@H]2O)C=CC1  Kd (human AKR1D1 wild type; binding, fluorescence titration): 0.043 ± 0.016 µM
Nc1nc(N)c2c(n1)[nH]c1cccc(Sc3ccccc3)c12  IC50 (DHFR; inhibitor): > 33 µM
Nc1ncnc2c1ncn2[C@@H]1O[C@H](COP(=O)(O)OP(=O)(O)OP(=O)(O)O)[C@@H](O)[C@H]1O  Kd (CFTR NBD1; binding, SPR or ITC): 2.4 ± 0.24 µM
Nc1nc2c(ncn2[C@@H]2O[C@H](COP(=O)(O)OP(=O)(O)O)[C@@H](O)[C@H]2O)c(=O)[nH]1  Kd (K-Ras; binding): 2.5e-06 µM
O=P(O)(O)O[C@@H]1[C@H](O)[C@H](O)[C@@H](OP(=O)(O)O)[C@H](OP(=O)(O)O)[C@H]1O  Kd (IP3R1 N-terminal domain residues 1-604; binding, FP competition; 4 °C, Ca2+-free): 0.089 ± 0.007 µM
CCn1nnc([C@H]2O[C@@H](n3cnc4c(NCc5cccc(I)c5)nc(Cl)nc43)[C@H](O)[C@@H]2O)n1  EC50 (Adenosine receptor A1 (ADORA1, Homo sapiens, UniProt P30542); adenylyl cyclase inhibition, agonist): 0.0649 µM
CC(=O)O[C@H]1C(=O)[C@@]2(C)[C@H]([C@H](OC(=O)c3ccccc3)[C@]3(O)C[C@H](OC(=O)[C@H](O)[C@@H](NC(=O)c4ccccc4)c4ccccc4)C(C)=C1C3(C)C)[C@]1(OC(C)=O)CO[C@@H]1C[C@@H]2O  Kd (tubulin; binding to microtubules): 0.01 µM
[I-].[K+]  Kd (SLC4A1 (Homo sapiens, UniProt P02730); Cl- exchange, inhibitor; pH 8, citrate replacing chloride): 950 to 1190 µM
COc1cc2cc(c1Cl)N(C)C(=O)C[C@H](OC(=O)[C@H](C)N(C)C(C)=O)[C@]1(C)O[C@H]1[C@H](C)[C@@H]1C[C@@](O)(NC(=O)O1)[C@H](OC)/C=C/C=C(\C)C2  Kd (tubulin; vinblastine site): ~1 µM
Nc1nc2c(nc(Sc3ccc(Cl)cc3)n2C2O[C@@H]3COP(=O)(O)O[C@H]3[C@H]2O)c(=O)[nH]1 (stereo in doubt)  Km or Ki (PDE1C; cyclic nucleotide hydrolysis, substrate or inhibitor, isothermal titration calorimetry): 47.1 µM
